Results pooled from the literature.
Each line is one published result; not all experiments were run side by side. Numbers after ± are the reported error.

Molecule = CC(C)NC[C@@H](C(=O)N1CCN(c2ncnc3c2[C@H](C)C[C@H]3O)CC1)c1ccc(Cl)cc1; system = human, Moderate hepatic function, plasma; setting = oral, 100 mg single dose, NCI classification, geometric mean; quantity = apparent clearance; result = 97.1 L/h
Molecule = O=C(O)COC[C@H]1CC[C@H](COC(=O)N(c2ccccc2)c2ccc(Cl)cc2)CC1; system = human; setting = oral, 50 µg once daily, steady state; quantity = effective half-life; result = 1100 min
Molecule = Nc1nc2c(nc(Sc3ccc(Cl)cc3)n2[C@@H]2O[C@@H]3CO[P@@](=O)(S)O[C@H]3[C@H]2O)c(=O)[nH]1; test = eating, drinking, motor activity; system = rat; setting = intrathecal, dose not given; scale = relative to: control; quantity = behavioural abnormalities; result = no effect
Molecule = O=C(Nc1nc2cccc(-c3ccc(CN4CCS(=O)(=O)CC4)cc3)n2n1)C1CC1; system = human male; setting = oral, 200 mg once daily, steady state, mean; quantity = terminal half-life; result = 310 min
Molecule = CN(C)C/C=C/C(=O)Nc1cc2c(Nc3ccc(F)c(Cl)c3)ncnc2cc1O[C@H]1CCOC1; system = human, plasma; setting = oral, 40 mg once daily, day 27, geometric mean; quantity = half-life at steady state; result = 2040 min
Molecule = O=C(c1nc2n(n1)[C@H](c1ccccc1)C[C@@H]2F)C1CC1; system = human, plasma; setting = oral, 5 mg, 24 h, single dose, fasted, healthy volunteers; quantity = concentration; result = 13.5 ng/mL
Molecule = des-acyl ghrelin (human); system = mouse, Ghsr knockout, striatum; setting = intravenous, 10 min; quantity = brain/serum ratio; result = 6.67 µL/g
Molecule = COc1cc(/C=C/C(=O)CC(=O)/C=C/c2ccc(O)c(OC)c2)ccc1O; system = C57BL/6J mouse, cerebral cortex; setting = 10 µg IN, 100 µg IP, 30 min, I-125 labelled; scale = relative to: IN over IP; quantity = brain uptake ratio; result = 3.01
Molecule = CS(=O)(=O)n1cc2c(n1)CN([C@H]1CO[C@H](c3cc(F)ccc3F)[C@@H](N)C1)C2; system = healthy male human, plasma; setting = oral, 200 mg single, fasted, geometric mean; quantity = concentration at 168 h; result = 79.5 nM
Molecule = Cn1c(-c2ccc(C(N)=O)cc2F)nnc1C(C)(C)Oc1c(F)cc(Cl)cc1F; system = young Japanese adults, plasma; setting = oral, 20 mg single dose, day 1, high-dose multiple-dose study; quantity = half-life mean; result = 1080 min
Molecule = COC(=O)c1ccc2c(c1)NC(=O)/C2=C(\Nc1ccc(N(C)C(=O)CN2CCN(C)CC2)cc1)c1ccccc1; system = human, plasma; setting = oral, 200 mg twice daily; quantity = AUC(tau) at steady state; result = 6170 ng·h/mL
Molecule = CC(=O)N[C@@H](Cc1ccccc1)C(=O)N[C@H]1CCCNC(=O)[C@H](CCCNC(=N)N)NC(=O)[C@H](Cc2c[nH]c3ccccc23)NC(=O)[C@@H](CC2CCCCC2)NC(=O)[C@@H]2CCCN2C1=O; system = C57BL/6J mouse, plasma; setting = intravenous, 1 mg/kg single dose; quantity = Vss; result = 0.0029 L
Molecule = Cc1cc(C)c2c(c1)[C@@H](N(Cc1cc(C(F)(F)F)cc(C(F)(F)F)c1)c1nnn(C)n1)CCCN2C[C@H]1CC[C@H](C(=O)O)CC1; test = LC-MS/MS; system = human, plasma; setting = oral, 100 mg once daily, steady state; quantity = t1/2; result = 2640 min
Molecule = CON; system = human, whole blood on ice; setting = 120 min before centrifugation; quantity = blood concentration; result = 10.5 ng/mL
Molecule = O=C(CCCCCCC(=O)Nc1ccccc1)NO; system = patients, serum; setting = oral, 400 mg, cycle 1, together with: flavopiridol; quantity = AUC(0-7 h); result = 8.32 µM·h
Molecule = CCOc1ccc(NC(=S)N(CCO)Cc2cc3cc(C)cc(C)c3[nH]c2=O)cc1; system = C57BL/6J mouse, plasma; setting = oral, 3 mg/kg, together with: ABT 50 mg/kg oral pretreatment 2 h before; quantity = oral bioavailability; result = 99%
Molecule = COc1cc(C(=O)N2CCC3(CC2)CC(=O)c2c(cnn2C(C)C)C3)cc(-c2ccc(C(=O)O)cc2)n1; test = measured: GGT; system = human; setting = 15 mg twice daily, 7 days; quantity = liver enzyme elevation; result = 2.8 × ULN
Molecule = CCCOc1ccc([C@H]2CNC(=O)N2c2ccc3[nH]cnc3c2)cc1; system = human volunteers fasted, plasma; setting = oral solution, 100 mg single dose, day 1, geometric mean; quantity = apparent terminal half-life; result = 148 min
Molecule = Cc1cc(Nc2cc3ncccc3c(N[C@@H]3C[C@H]4CC[C@@H](C3)N4CCC#N)n2)n[nH]1; system = beagle dog, male, plasma; setting = oral, 10 mg/kg/day, last day of 13 weeks; quantity = Cmax; result = 6.52 ng/mL
Molecule = O=C(/C=C/c1ccc(O)cc1)c1ccc(O)cc1O; system = Sprague Dawley rat, plasma; setting = intravenous, 2 mg/kg single dose; quantity = distribution half-life; result = 4.2 ± 0.6 min
Molecule = Cc1cccc(C)c1OCC(=O)N[C@@H](Cc1ccccc1)[C@@H](O)C[C@H](Cc1ccccc1)NC(=O)[C@H](C(C)C)N1CCCNC1=O; test = median; system = HIV patients without HCV, plasma; setting = oral, lopinavir/ritonavir twice daily; quantity = fraction unbound; result = 0.0097
Molecule = CNCc1ccc(-c2[nH]c3cc(F)cc4c3c2CCNC4=O)cc1; system = human, fasted, plasma; setting = oral, 600 mg, single dose, arithmetic mean; quantity = Cmax; result = 819 ng/mL
Molecule = O=C1N=C(N2CCOCC2)CN1c1ccc(Cl)cc1; system = beagle dog, both sexes, plasma; setting = oral, 30 mg/kg twice daily, day 5, tablets, after 4 days dosing; quantity = terminal half-life; result = 99.6 min
Molecule = Cc1nc2cccc(OCC(C)(C)C(=O)NC(C)C)c2c(N)c1C(=O)O; system = male Sprague-Dawley rat, plasma; setting = oral gavage, 30 mg/kg single dose; quantity = dose-normalised Cmax; result = 1.29 ng/mL/mg/kg
Molecule = CNC(=O)c1ccc(-c2cnc3ncc(Cc4ccc5ncccc5c4)n3n2)cc1F; system = human, moderate hepatic impairment (Child-Pugh B), plasma; setting = oral, 200 mg single dose; quantity = half-life (mean); result = 457 min
Molecule = CN(C)Cc1c(C(=O)NCCOc2ccc(C(=O)NO)cc2)oc2ccccc12; system = human, plasma; setting = oral, 40 mg, single dose on day -3; quantity = half-life (median); result = 154 min

Excerpt of the above:
Molecule = O=C(Nc1nc2cccc(-c3ccc(CN4CCS(=O)(=O)CC4)cc3)n2n1)C1CC1; system = human male; setting = oral, 200 mg once daily, steady state, mean; quantity = terminal half-life; result = 310 min
Molecule = COC(=O)c1ccc2c(c1)NC(=O)/C2=C(\Nc1ccc(N(C)C(=O)CN2CCN(C)CC2)cc1)c1ccccc1; system = human, plasma; setting = oral, 200 mg twice daily; quantity = AUC(tau) at steady state; result = 6170 ng·h/mL
